Assay results from different studies.
Numbered parts are unrelated; each lists some results of a single study.
Chain of UniProt Q9UPE1 (whole entry, looked up): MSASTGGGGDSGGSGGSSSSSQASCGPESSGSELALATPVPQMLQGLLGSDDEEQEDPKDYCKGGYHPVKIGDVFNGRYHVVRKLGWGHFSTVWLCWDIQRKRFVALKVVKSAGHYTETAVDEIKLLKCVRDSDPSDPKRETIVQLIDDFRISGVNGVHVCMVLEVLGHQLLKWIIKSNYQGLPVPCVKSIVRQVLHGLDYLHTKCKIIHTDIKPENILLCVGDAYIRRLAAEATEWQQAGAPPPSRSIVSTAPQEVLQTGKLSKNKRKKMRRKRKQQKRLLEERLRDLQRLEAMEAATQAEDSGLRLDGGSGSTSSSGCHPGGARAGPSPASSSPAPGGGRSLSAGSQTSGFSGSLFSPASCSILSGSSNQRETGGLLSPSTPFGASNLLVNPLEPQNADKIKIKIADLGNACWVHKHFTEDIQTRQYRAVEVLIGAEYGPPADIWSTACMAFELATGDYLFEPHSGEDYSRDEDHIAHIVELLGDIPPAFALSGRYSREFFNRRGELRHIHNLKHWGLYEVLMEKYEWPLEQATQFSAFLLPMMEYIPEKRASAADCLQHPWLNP
Chain of UniProt Q99683 (whole entry, looked up): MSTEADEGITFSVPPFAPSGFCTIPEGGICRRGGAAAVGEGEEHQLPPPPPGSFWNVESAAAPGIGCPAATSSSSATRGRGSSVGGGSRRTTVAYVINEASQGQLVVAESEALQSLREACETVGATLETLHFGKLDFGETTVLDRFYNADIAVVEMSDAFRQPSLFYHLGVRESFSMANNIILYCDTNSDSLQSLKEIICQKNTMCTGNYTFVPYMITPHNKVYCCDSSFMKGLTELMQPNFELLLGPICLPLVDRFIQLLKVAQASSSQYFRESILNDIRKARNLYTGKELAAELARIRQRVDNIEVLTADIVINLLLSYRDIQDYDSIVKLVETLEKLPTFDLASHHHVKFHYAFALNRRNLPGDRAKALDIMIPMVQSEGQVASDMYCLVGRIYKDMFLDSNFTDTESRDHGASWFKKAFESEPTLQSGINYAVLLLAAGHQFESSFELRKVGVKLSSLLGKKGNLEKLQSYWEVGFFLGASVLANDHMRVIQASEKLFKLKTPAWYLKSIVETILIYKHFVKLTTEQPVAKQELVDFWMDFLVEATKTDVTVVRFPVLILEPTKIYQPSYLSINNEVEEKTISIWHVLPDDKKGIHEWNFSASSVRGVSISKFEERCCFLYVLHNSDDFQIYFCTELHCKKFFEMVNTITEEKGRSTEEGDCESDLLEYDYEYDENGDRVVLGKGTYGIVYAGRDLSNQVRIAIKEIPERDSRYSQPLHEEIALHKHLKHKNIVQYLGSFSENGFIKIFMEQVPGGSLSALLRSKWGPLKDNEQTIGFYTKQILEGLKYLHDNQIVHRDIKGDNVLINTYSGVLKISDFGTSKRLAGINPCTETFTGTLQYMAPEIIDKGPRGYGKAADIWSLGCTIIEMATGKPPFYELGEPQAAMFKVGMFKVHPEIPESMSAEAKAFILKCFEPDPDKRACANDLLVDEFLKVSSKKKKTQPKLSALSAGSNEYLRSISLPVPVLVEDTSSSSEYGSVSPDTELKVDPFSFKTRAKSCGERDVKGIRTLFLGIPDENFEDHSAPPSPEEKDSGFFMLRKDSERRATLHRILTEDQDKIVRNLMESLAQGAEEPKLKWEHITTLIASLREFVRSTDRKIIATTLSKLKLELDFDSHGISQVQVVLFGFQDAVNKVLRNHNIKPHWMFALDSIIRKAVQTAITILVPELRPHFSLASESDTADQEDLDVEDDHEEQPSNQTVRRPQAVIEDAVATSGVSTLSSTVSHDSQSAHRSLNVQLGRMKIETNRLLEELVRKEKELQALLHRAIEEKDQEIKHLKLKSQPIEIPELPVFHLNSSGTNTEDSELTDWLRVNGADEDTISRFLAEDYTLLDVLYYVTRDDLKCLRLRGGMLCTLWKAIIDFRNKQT
Chain of UniProt Q12866 (whole entry, looked up): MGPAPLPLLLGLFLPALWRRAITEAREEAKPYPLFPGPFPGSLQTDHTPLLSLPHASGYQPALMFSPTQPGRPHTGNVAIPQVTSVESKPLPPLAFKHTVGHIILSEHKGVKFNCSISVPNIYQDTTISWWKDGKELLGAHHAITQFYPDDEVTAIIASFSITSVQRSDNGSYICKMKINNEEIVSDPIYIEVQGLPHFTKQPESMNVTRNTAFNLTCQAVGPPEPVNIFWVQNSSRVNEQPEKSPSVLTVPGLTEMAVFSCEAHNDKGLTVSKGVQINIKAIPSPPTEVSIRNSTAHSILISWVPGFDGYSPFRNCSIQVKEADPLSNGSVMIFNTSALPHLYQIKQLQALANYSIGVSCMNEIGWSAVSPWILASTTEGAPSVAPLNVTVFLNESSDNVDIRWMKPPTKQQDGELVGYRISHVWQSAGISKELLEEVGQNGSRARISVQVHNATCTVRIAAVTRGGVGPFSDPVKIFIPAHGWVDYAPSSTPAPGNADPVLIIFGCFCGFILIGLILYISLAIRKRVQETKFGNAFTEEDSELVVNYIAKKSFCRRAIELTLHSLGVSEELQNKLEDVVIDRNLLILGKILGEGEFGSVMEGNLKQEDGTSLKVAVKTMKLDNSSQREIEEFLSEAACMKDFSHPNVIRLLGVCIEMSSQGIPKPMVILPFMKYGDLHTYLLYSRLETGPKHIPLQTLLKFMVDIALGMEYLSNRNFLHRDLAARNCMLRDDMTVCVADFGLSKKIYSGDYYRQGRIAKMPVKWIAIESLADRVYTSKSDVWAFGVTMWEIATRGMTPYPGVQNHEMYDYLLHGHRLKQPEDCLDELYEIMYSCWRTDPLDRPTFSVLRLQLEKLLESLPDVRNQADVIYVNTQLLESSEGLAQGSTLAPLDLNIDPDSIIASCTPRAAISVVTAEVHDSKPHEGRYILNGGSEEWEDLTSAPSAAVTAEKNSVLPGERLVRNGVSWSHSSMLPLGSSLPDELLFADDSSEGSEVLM
Chain of UniProt P11362 (whole entry, looked up): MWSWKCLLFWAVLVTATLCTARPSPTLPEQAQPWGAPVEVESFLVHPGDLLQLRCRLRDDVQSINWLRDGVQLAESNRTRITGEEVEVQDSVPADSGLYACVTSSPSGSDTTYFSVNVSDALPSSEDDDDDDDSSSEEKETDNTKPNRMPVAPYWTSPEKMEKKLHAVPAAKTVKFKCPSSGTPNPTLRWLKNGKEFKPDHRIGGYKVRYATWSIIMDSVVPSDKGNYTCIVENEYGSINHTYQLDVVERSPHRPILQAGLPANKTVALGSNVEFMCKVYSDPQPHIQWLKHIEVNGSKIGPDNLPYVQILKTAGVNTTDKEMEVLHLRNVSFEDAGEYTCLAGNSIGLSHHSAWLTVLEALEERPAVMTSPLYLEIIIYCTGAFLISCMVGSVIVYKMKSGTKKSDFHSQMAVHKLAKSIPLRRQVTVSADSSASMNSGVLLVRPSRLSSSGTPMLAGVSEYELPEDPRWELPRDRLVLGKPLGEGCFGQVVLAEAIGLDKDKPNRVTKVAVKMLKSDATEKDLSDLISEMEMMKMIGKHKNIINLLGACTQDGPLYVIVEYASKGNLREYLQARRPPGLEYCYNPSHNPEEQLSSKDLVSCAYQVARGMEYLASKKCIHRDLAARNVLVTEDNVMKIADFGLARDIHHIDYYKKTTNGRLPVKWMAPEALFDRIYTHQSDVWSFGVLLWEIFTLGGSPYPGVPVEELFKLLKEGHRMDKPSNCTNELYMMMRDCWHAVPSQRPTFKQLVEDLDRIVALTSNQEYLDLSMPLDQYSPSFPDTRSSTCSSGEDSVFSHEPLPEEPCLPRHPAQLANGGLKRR
Chain of UniProt Q99755 (whole entry, looked up): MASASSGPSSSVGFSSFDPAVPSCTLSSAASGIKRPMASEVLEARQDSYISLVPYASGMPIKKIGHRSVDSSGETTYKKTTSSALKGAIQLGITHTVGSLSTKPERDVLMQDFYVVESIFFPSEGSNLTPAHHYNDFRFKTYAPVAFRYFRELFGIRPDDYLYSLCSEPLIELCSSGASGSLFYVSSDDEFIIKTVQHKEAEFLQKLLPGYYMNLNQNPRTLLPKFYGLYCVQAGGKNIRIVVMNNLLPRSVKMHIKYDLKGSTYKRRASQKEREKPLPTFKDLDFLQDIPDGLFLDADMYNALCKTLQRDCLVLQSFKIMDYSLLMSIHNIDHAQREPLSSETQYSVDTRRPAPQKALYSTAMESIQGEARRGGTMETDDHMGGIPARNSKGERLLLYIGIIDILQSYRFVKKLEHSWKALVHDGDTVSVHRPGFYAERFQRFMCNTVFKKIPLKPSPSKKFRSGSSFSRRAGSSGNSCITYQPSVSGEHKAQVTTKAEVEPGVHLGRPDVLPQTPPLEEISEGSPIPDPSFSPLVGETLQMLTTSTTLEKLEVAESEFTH
Chain of UniProt Q13705 (whole entry, looked up): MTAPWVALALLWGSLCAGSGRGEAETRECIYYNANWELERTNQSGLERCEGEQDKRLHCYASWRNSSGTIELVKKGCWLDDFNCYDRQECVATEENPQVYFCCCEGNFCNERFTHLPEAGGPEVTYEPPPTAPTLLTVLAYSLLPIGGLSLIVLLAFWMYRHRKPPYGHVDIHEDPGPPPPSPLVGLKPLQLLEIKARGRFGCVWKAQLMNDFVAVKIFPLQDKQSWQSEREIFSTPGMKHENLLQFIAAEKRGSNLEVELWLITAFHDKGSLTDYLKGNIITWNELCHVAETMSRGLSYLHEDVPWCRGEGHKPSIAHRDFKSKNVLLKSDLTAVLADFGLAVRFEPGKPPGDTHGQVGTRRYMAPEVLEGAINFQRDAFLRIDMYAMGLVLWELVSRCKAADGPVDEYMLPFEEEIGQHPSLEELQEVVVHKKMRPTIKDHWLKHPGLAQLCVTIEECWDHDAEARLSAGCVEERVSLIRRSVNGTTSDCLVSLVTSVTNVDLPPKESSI

Study 1 — effect on: enzyme activity; mode: inhibitor; tested at: 0.5 µM; baseline: control
Compound: NC(=O)c1ccc(-c2nc(-c3ccc4c(c3)OCCO4)c(-c3ccccn3)[nH]2)cc1
For MAPKAPK2 (Homo sapiens, UniProt P49137): remaining activity read 104%.
FGFR1 (Homo sapiens, UniProt P11362) — remaining activity: 94.5%.
It gave 94.4% for remaining activity (EPHA3 (Homo sapiens, UniProt P29320)).
The remaining activity was 90.9% (ULK2 (Homo sapiens, UniProt Q8IYT8)).
MAP3K14 (Homo sapiens, UniProt Q99558) — remaining activity: 93.4%.
It gave 105% for remaining activity (GRK7 (Homo sapiens, UniProt Q8WTQ7)).
It gave 92.7% for remaining activity (MERTK (Homo sapiens, UniProt Q12866)).
For TEK (Homo sapiens, UniProt Q02763): remaining activity read 97.9%.
For MAP2K2 (Homo sapiens, UniProt P36507): remaining activity read 106%.
The remaining activity was 88.5% (RPS6KA2 (Homo sapiens, UniProt Q15349)).
MAP3K5 (Homo sapiens, UniProt Q99683) — remaining activity: 104%.
For ACVR1B (Homo sapiens, UniProt P36896): remaining activity read 158%.
For WEE1 (Homo sapiens, UniProt P30291): remaining activity read 105%.

Study 2 — technique: Phase 2a trial; species: idiopathic pulmonary fibrosis patients
Structure (SMILES): CC(C)n1cnc(-c2ccc(F)cc2)c1-c1ncc(C(=O)Nc2ccc(N3CCN(C)CC3)cc2)[nH]1
The “patients with adverse events” was 0% (item: oral herpes; oral, 60 mg once daily, grade 4 maximum intensity).
It gave 0% for “patients with adverse events” (item: weight increased; 30 mg once daily, grade 5 maximum intensity).
item: gamma-glutamyltransferase increased; 60 mg once daily, grade 5 maximum intensity — “patients with adverse events”: 0%.
It gave 0% for “patients with adverse events” (item: respiratory tract infection; dose not given, grade 3 maximum intensity, all arms).
It gave 0% for “patients with adverse events” (item: eye disorders (SOC); 30 mg once daily, grade 3 maximum intensity).

Study 3 — effect on: cell-free assay; technique: competition with immobilised ligand; tested at: 1 µM
Compound: COc1cccc(CNC(=O)c2nc3scc(COCc4ccc(C(=O)O)cc4)c3c(=O)[nH]2)c1
The remaining binding was 100% (MAP4K1 (Homo sapiens, UniProt Q92918)).
PIP5K1A (Homo sapiens, UniProt Q99755) — remaining binding: 100%.
The remaining binding was 100% (ACVR2B (Homo sapiens, UniProt Q13705)).
It gave 100% for remaining binding (PRKACA (Homo sapiens, UniProt P17612)).
SRPK3 (Homo sapiens, UniProt Q9UPE1) — remaining binding: 70.1%.
For FLT3 (Homo sapiens, UniProt P36888, N841I): remaining binding read 100%.

Study 4 — effect on: kinase activity; mode: inhibitor; tested at: 1 µM
Structure (SMILES): CC(C)S(=O)(=O)c1ccc2nccc(Nc3ccc4sc(C5CCCC5)nc4c3)c2c1.Cl
It gave 97% for remaining activity (SBK1 (Homo sapiens, UniProt Q52WX2)).
It gave 108% for remaining activity (EIF2AK4 (Homo sapiens, UniProt Q9P2K8)).
For BMPR2 (Homo sapiens, UniProt Q13873): remaining activity read 105%.
For PAK5 (Homo sapiens, UniProt Q9P286): remaining activity read 107%.
MAPK14 (Homo sapiens, UniProt Q16539) — remaining activity: 88%.

A few entries again (study 1):
MAP3K5 (Homo sapiens, UniProt Q99683) — remaining activity: 104%.
